Published values of several laboratories.
Lines come from different studies, so protocols differ. ± gives the spread as reported. Converted amounts (≈) assume the structure as drawn.
Organism: Acinetobacter baumannii

CC(C)C[C@H](NC(=O)[C@H](Cc1ccc(O)cc1)NC(=O)[C@@H]1CCCN1C(=O)[C@H](CCCNC(=N)N)NC(=O)[C@@H]1CCCN1C(=O)[C@H](CCCCN)NC(=O)[C@H](CC(=O)O)NC(=O)[C@@H]1CCCN1C(=O)[C@H](CCCNC(=N)N)NC(=O)C1(N)CCCCC1)C(=O)N1CCC[C@H]1C(=O)N[C@@H](CCCNC(=N)N)C(=O)N1CCC[C@H]1C(=O)N[C@@H](CCCNC(=N)N)C(=O)N1CCC[C@H]1C(=O)N1CCC[C@H]1C(=O)N[C@@H](CCCNC(=N)N)C(=O)N1CCC[C@H]1C(=O)N[C@H](C(=O)N[C@@H](CCCNC(=N)N)C(=O)N[C@@H](CSc1c(F)c(F)c(SC[C@H](NC(=O)[C@H](CCCNC(=N)N)NC(=O)[C@@H](NC(=O)[C@@H]2CCCN2C(=O)[C@H](CCCNC(=N)N)NC(=O)[C@@H]2CCCN2C(=O)[C@@H]2CCCN2C(=O)[C@H](CCCNC(=N)N)NC(=O)[C@@H]2CCCN2C(=O)[C@H](CCCNC(=N)N)NC(=O)[C@@H]2CCCN2C(=O)[C@H](CC(C)C)NC(=O)[C@H](Cc2ccc(O)cc2)NC(=O)[C@@H]2CCCN2C(=O)[C@H](CCCNC(=N)N)NC(=O)[C@@H]2CCCN2C(=O)[C@H](CCCCN)NC(=O)[C@H](CC(=O)O)NC(=O)[C@@H]2CCCN2C(=O)[C@H](CCCNC(=N)N)NC(=O)C2(N)CCCCC2)C(C)C)C(=O)NN)c(F)c1F)C(=O)NN)C(C)C  MDC (membrane disruption, propidium iodide uptake; 19606; 90 min, 37 °C): 10.6 ± 0.5 µg/mL
CC(NC(=O)c1ccccc1)C(CCCCCCCCCCCCCCC(=O)CCCCCCCC(OC(=O)c1ccccc1)C(C)NC(=O)c1ccccc1)OC(=O)c1ccccc1 (stereo not drawn)  growth inhibition (resazurin; ATCC 19606; 50 µM): 0 ± 7.06%
CCN1CCC(CCNCc2cc3ccccc3nc2SCc2ccccc2)CC1  inhibition (NADH-driven proton pumping, ACMA quenching; inverted membrane vesicles; 32 µg/mL): 85%
CCOc1c(NC(=O)c2ccc(NC(=O)c3ccc(NC(=O)[C@H](Cc4c[nH]nn4)NC(=O)c4ccc(NC(=O)/C(C)=C/c5ccc(O)cc5)cc4)cc3)c(OCC)c2O)ccc(C(=O)O)c1O  MIC (broth microdilution; ciprofloxacin-resistant): 0.031 µg/mL (≈ 0.034 µM)
c1ccc(CSc2nc3ccccc3cc2CNCCC2CCN(C3CCCC3)CC2)cc1  inhibition (NADH-driven proton pumping, ACMA quenching; inverted membrane vesicles; 32 µg/mL): 80%
CC(C)C[C@H](NC(=O)[C@H](Cc1ccc(O)cc1)NC(=O)[C@@H]1CCCN1C(=O)[C@H](CCCNC(=N)N)NC(=O)[C@@H]1CCCN1C(=O)[C@H](CCCCN)NC(=O)[C@H](CC(=O)O)NC(=O)[C@@H]1CCCN1C(=O)[C@H](CCCNC(=N)N)NC(=O)C1(N)CCCCC1)C(=O)N1CCC[C@H]1C(=O)N[C@@H](CCCNC(=N)N)C(=O)N1CCC[C@H]1C(=O)N[C@@H](CCCNC(=N)N)C(=O)N1CCC[C@H]1C(=O)N1CCC[C@H]1C(=O)N[C@@H](CCCNC(=N)N)C(=O)N1CCC[C@H]1C(=O)N[C@H](C(=O)N[C@@H](CCCNC(=N)N)C(=O)N[C@@H](CSCc1ccccc1CSC[C@H](NC(=O)[C@H](CCCNC(=N)N)NC(=O)[C@@H](NC(=O)[C@@H]1CCCN1C(=O)[C@H](CCCNC(=N)N)NC(=O)[C@@H]1CCCN1C(=O)[C@@H]1CCCN1C(=O)[C@H](CCCNC(=N)N)NC(=O)[C@@H]1CCCN1C(=O)[C@H](CCCNC(=N)N)NC(=O)[C@@H]1CCCN1C(=O)[C@H](CC(C)C)NC(=O)[C@H](Cc1ccc(O)cc1)NC(=O)[C@@H]1CCCN1C(=O)[C@H](CCCNC(=N)N)NC(=O)[C@@H]1CCCN1C(=O)[C@H](CCCCN)NC(=O)[C@H](CC(=O)O)NC(=O)[C@@H]1CCCN1C(=O)[C@H](CCCNC(=N)N)NC(=O)C1(N)CCCCC1)C(C)C)C(=O)NN)C(=O)NN)C(C)C  MDC (membrane disruption, propidium iodide uptake; 19606; 90 min, 37 °C): 25.7 ± 1 µg/mL
CCCCCCCC(=O)N[C@@H](CCN)C(=O)N[C@H](C(=O)N[C@@H](CCN)C(=O)N[C@H]1CCNC(=O)[C@H]([C@@H](C)O)NC(=O)[C@H](CCN)NC(=O)[C@H](CCN)NC(=O)[C@H](CC(C)C)NC(=O)[C@@H](Cc2ccccc2)NC(=O)[C@H](CCN)NC1=O)[C@@H](C)O  MIC (broth microdilution; ATCC 17978; 20 h, 37 °C): 0.25 µg/mL (≈ 0.21 µM)
Cc1ccnc(-c2cc(C(=O)NCCCCCC(=O)N[C@@H](CCCNC(=N)N)C(=O)N[C@@H](CCCNC(=N)N)C(=O)N[C@@H](Cc3c[nH]c4ccccc34)C(=O)N[C@@H](Cc3c[nH]c4ccccc34)C(=O)N[C@@H](CCCNC(=N)N)C(=O)N[C@@H](Cc3c[nH]c4ccccc34)C(=O)N[C@@H](Cc3c[nH]c4ccccc34)C(=O)N[C@@H](CCCNC(=N)N)C(=O)N[C@@H](CCCNC(=N)N)C(N)=O)ccn2)c1 (stereo in doubt)  log10 CFU reduction (colony counting; resistant; concentration not given, light irradiation; baseline: non-irradiated): no effect
CC(C)C[C@H](NC(=O)[C@H](Cc1ccc(O)cc1)NC(=O)[C@@H]1CCCN1C(=O)[C@H](CCCNC(=N)N)NC(=O)[C@@H]1CCCN1C(=O)[C@H](CCCCN)NC(=O)[C@H](CC(=O)O)NC(=O)[C@@H]1CCCN1C(=O)[C@H](CCCNC(=N)N)NC(=O)C1(N)CCCCC1)C(=O)N1CCC[C@H]1C(=O)N[C@@H](CCCNC(=N)N)C(=O)N1CCC[C@H]1C(=O)N[C@@H](CCCNC(=N)N)C(=O)N1CCC[C@H]1C(=O)N1CCC[C@H]1C(=O)N[C@@H](CCCNC(=N)N)C(=O)N1CCC[C@H]1C(=O)N[C@H](C(=O)N[C@@H](CCCNC(=N)N)C(=O)N[C@@H](CSCc1cccc(CSC[C@H](NC(=O)[C@H](CCCNC(=N)N)NC(=O)[C@@H](NC(=O)[C@@H]2CCCN2C(=O)[C@H](CCCNC(=N)N)NC(=O)[C@@H]2CCCN2C(=O)[C@@H]2CCCN2C(=O)[C@H](CCCNC(=N)N)NC(=O)[C@@H]2CCCN2C(=O)[C@H](CCCNC(=N)N)NC(=O)[C@@H]2CCCN2C(=O)[C@H](CC(C)C)NC(=O)[C@H](Cc2ccc(O)cc2)NC(=O)[C@@H]2CCCN2C(=O)[C@H](CCCNC(=N)N)NC(=O)[C@@H]2CCCN2C(=O)[C@H](CCCCN)NC(=O)[C@H](CC(=O)O)NC(=O)[C@@H]2CCCN2C(=O)[C@H](CCCNC(=N)N)NC(=O)C2(N)CCCCC2)C(C)C)C(=O)NN)c1)C(=O)NN)C(C)C  MDC (membrane disruption, propidium iodide uptake; 19606; 90 min, 37 °C): 23.7 ± 0.7 µg/mL

Some of these lines once more:
CCN1CCC(CCNCc2cc3ccccc3nc2SCc2ccccc2)CC1  inhibition (NADH-driven proton pumping, ACMA quenching; inverted membrane vesicles; 32 µg/mL): 85%
